Assay results collected from several papers.
“And” joins repeats or separate records; there may be more than shown. ± marks the error that the study gave.

| Compound | cell line | test | system | conditions | scale | endpoint | value |
| --- | --- | --- | --- | --- | --- | --- | --- |
| CC(=O)NCSC[C@H](NC(=O)[C@@H]1CCCN1C(=O)[C@H](C)NC(=O)[C@@H](NC(=O)CNC(=O)[C@@H](NC(=O)[C@H](Cc1c[nH]c2ccccc12)NC(=O)[C@H](C)NC(=O)CNC(=O)[C@H](CO)NC(=O)[C@H](C)NC(=O)[C@@H]1CCCN1C(=O)[C@H](Cc1c[nH]c2ccccc12)NC(=O)[C@H](C)NC(=O)[C@H](C)NC(=O)[C@@H](N)Cc1ccc(O)cc1)[C@@H](C)O)[C@@H](C)O)C(=O)N[C@@H](CO)C(=O)N[C@@H](C)C(=O)NCC(=O)N[C@H](C(=O)NCCOCCOCCOCCOCCOCCOCCOCCOCCOCCOCCOCCOCCC(=O)N[C@@H](CS)C(N)=O)[C@@H](C)O | H1437 lung adenocarcinoma | cell binding, phage binding, refers to: output/input phage |  | 10 min, 37 °C | baseline: control phage | selectivity ratio | 3.6 ± 1.3 |
| COc1ccccc1-c1ccncc1C(=O)Nc1nnc(OCc2ccc(Cl)cc2)s1 | DLD-1 parental (BRCA2 WT) |  |  | 0.06 µM, average of 3 runs | baseline: untreated | colony survival | 96.7% |
| N[C@H](C(=O)N1CCCC1)C1CCN(c2nccc3c(-c4ncc(Cl)cc4Cl)cccc23)CC1 | human neutrophils | protein citrullination, inhibitor, flow cytometry, refers to: citrullinated proteins |  | 10 µM, together with: ionomycin |  | inhibition | 97.9% and 102% and 98.1% and 94.7% |
| CC1CCC2C(C)C(OC(=O)CCC(=O)N3CCC(Nc4ccc(S(=O)(=O)NC(=O)c5ccc(N6CCN(CC7=C(c8ccc(Cl)cc8)CC(C)(C)CC7)CC6)cc5Oc5cnc6[nH]ccc6c5)cc4[N+](=O)[O-])CC3)OC3OC4(C)CCC1C32OO4 (stereo not shown) | KCL-22 | annexin V/PI flow cytometry, refers to: annexin V-/PI+ |  | 3.2 µM, 24 h |  | necrotic cells | 0.1% |
| Cc1cc(Oc2nc(N3CC[C@@H](c4ccncc4)C3)ncc2F)[nH]n1 | SU-DHL-6 | cell proliferation | blood cancer |  |  | IC50 | 26.9 µM |
| CC(C)(C)C(=O)OCOP(=O)(OCOC(=O)C(C)(C)C)C1CCCN(O)C1=O (stereo not shown) | MDA-MB-468 |  |  |  |  | log GI50 | -6.01 log M |
| O=C(C[Se]C(=O)c1cccs1)Nc1cccc(C(F)(F)F)c1 | NCI60 CNS subpanel | NCI60 five-dose screen |  |  |  | mean TGI | 3.23 µM |
| CSCC[C@H](N)C(=O)N[C@@H](C)C(=O)N[C@@H](Cc1c[nH]c2ccccc12)C(=O)N[C@@H](Cc1c[nH]cn1)C(=O)N[C@@H](CC(=O)O)C(=O)N[C@@H](CC(=O)O)C(=O)N[C@@H](CCC(=O)O)C(=O)N[C@@H](CCC(=O)O)C(=O)N[C@@H](Cc1ccccc1)C(=O)N[C@@H](C)C(=O)N[C@@H](CCCNC(=N)N)C(=O)N[C@@H](CCCNC(=N)N)C(=O)N[C@@H](CCCNC(=N)N)C(=O)N[C@@H](CCCNC(=N)N)C(=O)NCCCCCC(=O)NCCCCC(NC(=O)CCCCCNC(=O)[C@H](CCCNC(=N)N)NC(=O)[C@H](CCCNC(=N)N)NC(=O)[C@H](CCCNC(=N)N)NC(=O)[C@H](CCCNC(=N)N)NC(=O)[C@H](C)NC(=O)[C@H](Cc1ccccc1)NC(=O)[C@H](CCC(=O)O)NC(=O)[C@H](CCC(=O)O)NC(=O)[C@H](CC(=O)O)NC(=O)[C@H](CC(=O)O)NC(=O)[C@H](Cc1c[nH]cn1)NC(=O)[C@H](Cc1c[nH]c2ccccc12)NC(=O)[C@H](C)NC(=O)[C@@H](N)CCSC)C(=O)NCCCCC(NC(=O)C(CCCCNC(=O)CCCCCNC(=O)[C@H](CCCNC(=N)N)NC(=O)[C@H](CCCNC(=N)N)NC(=O)[C@H](CCCNC(=N)N)NC(=O)[C@H](CCCNC(=N)N)NC(=O)[C@H](C)NC(=O)[C@H](Cc1ccccc1)NC(=O)[C@H](CCC(=O)O)NC(=O)[C@H](CCC(=O)O)NC(=O)[C@H](CC(=O)O)NC(=O)[C@H](CC(=O)O)NC(=O)[C@H](Cc1c[nH]cn1)NC(=O)[C@H](Cc1c[nH]c2ccccc12)NC(=O)[C@H](C)NC(=O)[C@@H](N)CCSC)NC(=O)CCCCCNC(=O)[C@H](CCCNC(=N)N)NC(=O)[C@H](CCCNC(=N)N)NC(=O)[C@H](CCCNC(=N)N)NC(=O)[C@H](CCCNC(=N)N)NC(=O)[C@H](C)NC(=O)[C@H](Cc1ccccc1)NC(=O)[C@H](CCC(=O)O)NC(=O)[C@H](CCC(=O)O)NC(=O)[C@H](CC(=O)O)NC(=O)[C@H](CC(=O)O)NC(=O)[C@H](Cc1c[nH]cn1)NC(=O)[C@H](Cc1c[nH]c2ccccc12)NC(=O)[C@H](C)NC(=O)[C@@H](N)CCSC)C(N)=O (stereo partly shown) | mouse bone marrow macrophages | immunocytochemistry |  | 3 µM, together with: RANKL |  | nuclei with nuclear p38 | 50% |
| CCCNC(=O)[C@H]1O[C@@H]1C(=O)N[C@H](C(=O)N1CCC[C@H]1C(=O)OCC1=C2C(C)=CC(C)=[N+]2[B-](C)(C)n2c(C)cc(C)c21)[C@@H](C)CC | MCF-10A | MTT |  | 72 h | baseline: dark EC50 over light EC50 | phototoxicity index | 7.7 |
| O=C(C[Se]C(=O)c1ccc2ccccc2n1)Nc1cccc(C(F)(F)F)c1 | NCI60 CNS subpanel | NCI60 five-dose screen |  |  |  | CC50 | 17.7 µM |

A few entries again:
| Compound | cell line | test | system | conditions | scale | endpoint | value |
| --- | --- | --- | --- | --- | --- | --- | --- |
| COc1ccccc1-c1ccncc1C(=O)Nc1nnc(OCc2ccc(Cl)cc2)s1 | DLD-1 parental (BRCA2 WT) |  |  | 0.06 µM, average of 3 runs | baseline: untreated | colony survival | 96.7% |
